Experimental data gathered from unrelated publications.
Numbered parts are unrelated; each lists some results of a single study. Positions count from the first letter of the parent shown.

Set 1 — target: CCNF, cyclin fold, Cln2 fusion (human); technique: yeast growth competition, sequencing; matrix: yeast; notes: strong parent motif; baseline: not given; direction: higher = stronger binding; endpoint: normalised enrichment score
Starting sequence: viral docking peptide; PGASRRLFGSSAD; partner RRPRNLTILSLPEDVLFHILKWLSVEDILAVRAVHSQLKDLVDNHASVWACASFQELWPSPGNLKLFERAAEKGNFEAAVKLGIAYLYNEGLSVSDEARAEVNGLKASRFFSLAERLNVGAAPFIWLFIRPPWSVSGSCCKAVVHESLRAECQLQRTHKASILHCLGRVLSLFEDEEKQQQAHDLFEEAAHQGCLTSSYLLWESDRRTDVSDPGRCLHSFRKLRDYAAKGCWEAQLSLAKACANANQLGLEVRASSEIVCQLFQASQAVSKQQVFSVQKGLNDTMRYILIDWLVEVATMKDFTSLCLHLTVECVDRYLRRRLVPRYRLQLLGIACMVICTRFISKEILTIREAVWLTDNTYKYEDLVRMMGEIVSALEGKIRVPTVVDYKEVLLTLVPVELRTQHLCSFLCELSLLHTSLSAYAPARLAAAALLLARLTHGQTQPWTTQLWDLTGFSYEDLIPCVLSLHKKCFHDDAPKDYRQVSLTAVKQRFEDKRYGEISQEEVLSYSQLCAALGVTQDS
PGASKRLLGSSAD [R5K F8L]: 0.793
PGASKRLFGSSAD [R5K]: 0.883
PGASRRAFGSSAD [L7A]: 0.778
AGASRRLFGSSAD [P1A]: 3.28
PAASRRLFGSSAD [G2A]: 3.15
PGASARAFGSSAD [R5A L7A]: 0.55
PGASRRLFASSAD [G9A]: 4.68
PGASARLFGSSAD [R5A]: 0.844
PGASRRLFGSAAD [S11A]: 4.05

Set 2 — technique: RNA Bind-n-Seq; form: RNA; matrix: in vitro; tested at: 200 nM; notes: whole 134-nt RNA, ends assumed; with: 150 mM KCl; baseline: input library; direction: higher = stronger binding; endpoint: log2 enrichment
Target: Ras GTPase-activating protein-binding protein 1, full length (G3BP1, Homo sapiens, UniProt Q13283)
Sequence of UniProt Q13283 (whole entry, looked up): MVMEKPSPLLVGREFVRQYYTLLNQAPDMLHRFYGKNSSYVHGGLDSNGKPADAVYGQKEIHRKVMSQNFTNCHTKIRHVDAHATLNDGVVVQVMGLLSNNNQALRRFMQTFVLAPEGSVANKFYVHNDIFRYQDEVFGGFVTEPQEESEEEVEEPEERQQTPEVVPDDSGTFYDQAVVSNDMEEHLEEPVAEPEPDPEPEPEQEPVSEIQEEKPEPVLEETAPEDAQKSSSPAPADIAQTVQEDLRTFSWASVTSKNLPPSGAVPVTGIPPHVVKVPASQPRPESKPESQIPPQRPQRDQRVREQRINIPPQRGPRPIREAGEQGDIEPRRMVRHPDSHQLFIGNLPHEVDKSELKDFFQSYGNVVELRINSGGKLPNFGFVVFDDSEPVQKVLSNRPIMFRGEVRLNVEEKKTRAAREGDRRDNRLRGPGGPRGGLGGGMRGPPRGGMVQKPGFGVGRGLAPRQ
All sequences stand within: GGGAGUUCUACAGUCCGACGAUC … UGGAAUUCUCGGGUGUCAAGG
CCUGUGCUACACAUCGUAUGUACCGAAUCGGGGAAAAAAAGGGAAAAAAAGGAAAAAAAGGAAAGUAUUAUGUUACGCCGUUCGGAUCUG: -0.514
CUGUGCUACACAUCGUAUGUACCGAAUCGGGAAAAAAAGGGAAAAAAAGGGAAAAAAAGGGAAAGUAUUAUGUUACGCCGUUCGGAUCUG: -0.893
UGGCCCUGGUGGCAUGCGGGGAGGAAGAGGUGGCCUCAUGGAUCGUGGGGGUCCCGGUGGAAUGUUCAGAGGUGGCCGUGGUGGAGACAG: 0.396
UCCUGUGCUACACAUCGUAUGUACCGAAUCGGGGUUUUUGGGGUGGGGAAAAAAAGGGGAAAGUAUUAUGUUACGCCGUUCGGAUCUGCA: 0.656
ACCAUGAAAGUGGGCAUCUUUGGGAAGUGGGGCAAGGGGGGGAUAGGGAGGGGGGUAACACUUUGGGAACAGGUGGUCCCAGGUCGUUUC: 0.762
ACCAUGCAGGUGGGCAUCUUUGGGAAGUGGGGCAAGGGGGGGAUAGGGAGGGGGGUAACACUUUGGGAACAGGUUGUCCCAGGUCGUUUC: 1.12
CCUCAAGUCCUGUGCUACACAUCGUAUGUACCGAAUCGGGGUGGGUGGUGGGGAAAGUAUUAUGUUACGCCGUUCGGAUCUGCACUUCCA: 0.972
AAGUCCUGUGCUACACAUCGUAUGUACCGAAUCGGGGAAAGGGGAAAGGGGAGGGGAAAGUAUUAUGUUACGCCGUUCGGAUCUGCACUU: 0.65

Set 3 — observed: binding; technique: phage display NGS; form: peptide; notes: panning round 2; baseline: input library; endpoint: minimum log2 enrichment ratio
Target: UDP-N-acetylglucosamine--peptide N-acetylglucosaminyltransferase 110 kDa subunit (OGT, Homo sapiens, UniProt O15294)
Target sequence (O15294 1-1046): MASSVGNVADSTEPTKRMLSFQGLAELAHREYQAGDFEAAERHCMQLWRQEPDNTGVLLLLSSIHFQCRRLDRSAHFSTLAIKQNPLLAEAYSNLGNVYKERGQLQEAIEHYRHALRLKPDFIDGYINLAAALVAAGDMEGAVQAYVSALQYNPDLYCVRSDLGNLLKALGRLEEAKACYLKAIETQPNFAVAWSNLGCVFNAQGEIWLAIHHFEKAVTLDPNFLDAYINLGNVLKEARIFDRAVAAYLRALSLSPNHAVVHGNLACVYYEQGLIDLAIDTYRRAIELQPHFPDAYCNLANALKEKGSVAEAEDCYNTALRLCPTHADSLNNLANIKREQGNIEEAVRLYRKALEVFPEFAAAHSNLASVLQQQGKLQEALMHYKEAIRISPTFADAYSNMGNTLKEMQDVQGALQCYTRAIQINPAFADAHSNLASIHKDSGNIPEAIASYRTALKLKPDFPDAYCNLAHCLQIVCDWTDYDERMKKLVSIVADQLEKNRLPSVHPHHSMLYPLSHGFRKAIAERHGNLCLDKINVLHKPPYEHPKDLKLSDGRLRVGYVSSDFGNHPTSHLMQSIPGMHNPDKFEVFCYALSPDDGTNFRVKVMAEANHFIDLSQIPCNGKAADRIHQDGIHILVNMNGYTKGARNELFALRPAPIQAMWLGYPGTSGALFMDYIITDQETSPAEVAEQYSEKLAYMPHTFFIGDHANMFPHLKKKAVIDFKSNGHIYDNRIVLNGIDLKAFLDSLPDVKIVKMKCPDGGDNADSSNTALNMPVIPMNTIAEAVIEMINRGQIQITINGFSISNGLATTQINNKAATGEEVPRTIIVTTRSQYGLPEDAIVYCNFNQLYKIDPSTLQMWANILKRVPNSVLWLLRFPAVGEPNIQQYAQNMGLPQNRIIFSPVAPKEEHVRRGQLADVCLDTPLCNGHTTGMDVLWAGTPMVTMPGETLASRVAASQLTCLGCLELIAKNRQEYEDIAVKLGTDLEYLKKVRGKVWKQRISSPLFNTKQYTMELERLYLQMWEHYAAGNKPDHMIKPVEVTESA
HQAHHNMQWFQQDHV: 2.39
QNDRYLPAYVITYAR: 6.9
AIYAQHPMHRTHIRI: 2.21

Single results of other studies
Cc1cc(C(C)(C)C)cc(C)c1CC1=NCCN1  parasite load (Plasmodium berghei; Huh-7, liver stage; 10 µM, 24 h; baseline: control): 113%

Excerpt of the above (set 2):
ACCAUGCAGGUGGGCAUCUUUGGGAAGUGGGGCAAGGGGGGGAUAGGGAGGGGGGUAACACUUUGGGAACAGGUUGUCCCAGGUCGUUUC: 1.12
